Measured values of several laboratories.
A part holds a random share of what one study measured. Changes are numbered by the printed parent chain.

Study 1
Target: PABPC1L2, full length, GST fusion (mouse, UniProt A0ABA7IW68)
Technique: RNAcompete
Molecule type: RNA
Sample: in vitro
Tested at: 20 nM
Setting: 7-mer, probes averaged, single round
Relative to: mean of 7-mers
Direction: higher = stronger binding
Endpoint: 7-mer Z-score
Residues (chain): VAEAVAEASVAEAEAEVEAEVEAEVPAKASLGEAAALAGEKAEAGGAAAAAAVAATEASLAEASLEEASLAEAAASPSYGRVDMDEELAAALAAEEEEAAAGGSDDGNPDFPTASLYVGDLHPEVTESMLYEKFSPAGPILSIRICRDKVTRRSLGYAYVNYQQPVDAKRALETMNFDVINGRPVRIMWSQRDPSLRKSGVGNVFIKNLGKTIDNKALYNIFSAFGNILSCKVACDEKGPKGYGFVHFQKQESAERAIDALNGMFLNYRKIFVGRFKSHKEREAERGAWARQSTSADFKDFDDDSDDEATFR
Oligonucleotide = CACAAAG; result = 0.742
Oligonucleotide = ACCCCGC; result = -0.382
Oligonucleotide = AUAUGGA; result = 0.233
Oligonucleotide = GAAUAUG; result = -0.0373
Oligonucleotide = UGCCCUA; result = -0.295
Oligonucleotide = GGCCAGA; result = 0.271
Oligonucleotide = AUAGGAC; result = 0.253
Oligonucleotide = CCGGUUG; result = -0.38

Study 2
Target: Prothrombin, mature alpha-thrombin (F2, Homo sapiens, UniProt P00734)
Technique: aptamer microarray, sandwich
Molecule type: DNA with 2'F-ANA
Sample: in vitro
Tested at: 200 nM
Setting: whole 15-mer aptamer, many near background
Together with: Cy3 exosite-II aptamer, 400 nM
Direction: higher = stronger binding
Endpoint: mean fluorescence intensity
Oligonucleotide: GGTTGGTGTGGTTGG
Modification = 2'F-ANA at 1 3 7 9 10 12 14 15; result = 89.5 a.u.
Modification = 2'F-ANA at 1 2 4 6 7 9 10 13; result = 60.2 a.u.
Modification = 2'F-ANA at 3 5 6 7 8 9 10 11 14; result = 50.3 a.u.
Modification = 2'F-ANA at 1 4 11 12 13 14 15; result = 56 a.u.
Modification = 2'F-ANA at 2 3 6 7 8 9 11 12 15; result = 858 a.u.
Modification = 2'F-ANA at 1 4 10 15; result = 50.6 a.u.
Modification = 2'F-ANA at 3 9 10 11 12 13; result = 572 a.u.
Modification = 2'F-ANA at 3 5 7 8 9 10 11 15; result = 59.8 a.u.

Other studies, line by line
KAT6A winged helix 2, GST fusion: Histone acetyltransferase KAT6A, winged helix 2, GST fusion (KAT6A, Homo sapiens, UniProt Q92794, residues 85-181)
P1: viral docking peptide; KGVKRKLFAEDSS; partner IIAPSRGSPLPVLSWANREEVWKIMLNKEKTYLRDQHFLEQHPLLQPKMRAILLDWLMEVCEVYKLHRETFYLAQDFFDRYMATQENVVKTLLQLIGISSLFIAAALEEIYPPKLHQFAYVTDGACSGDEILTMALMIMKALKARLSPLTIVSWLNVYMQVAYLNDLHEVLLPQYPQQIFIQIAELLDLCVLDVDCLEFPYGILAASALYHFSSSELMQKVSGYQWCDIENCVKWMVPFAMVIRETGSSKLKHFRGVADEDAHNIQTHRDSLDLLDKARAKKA
B1: KAT6A 1-85 (Homo sapiens, UniProt Q92794); sequence looked up; chain MVKLANPLYTEWILEAIKKVKKQKQRPSEERICNAVSSSHGLDRKTVLEQLELSVKDGTILKVSNKGLNSYKDPDNPGRIALPKP
Molecule = TCCTCGAA; tested on = KAT6A winged helix 2, GST fusion; assay = protein binding microarray; test system = double-stranded DNA, one strand shown, in vitro; conditions = not given, 8-mer, flanks averaged, mean of 2 arrays, mostly near background; scale = relative to: not given, higher = stronger binding; endpoint = E-score; result = -0.14
Molecule = P1 A9V; tested on = CCNE1, cyclin fold, Cln2 fusion (human); assay = yeast growth competition, sequencing; test system = yeast; conditions = strong parent motif; scale = relative to: not given, higher = stronger binding; endpoint = normalised enrichment score; result = 7.61
Molecule = CATACCTC; tested on = KAT6A winged helix 2, GST fusion; assay = protein binding microarray; test system = double-stranded DNA, one strand shown, in vitro; conditions = not given, 8-mer, flanks averaged, mean of 2 arrays, mostly near background; scale = relative to: not given, higher = stronger binding; endpoint = E-score; result = 0.0861
Molecule = B1 (KAT6A 1-85); tested on = itself; assay = crystal structure; endpoint = binding; result = binds
Molecule = CGAAAAAG; tested on = KAT6A winged helix 2, GST fusion; assay = protein binding microarray; test system = double-stranded DNA, one strand shown, in vitro; conditions = not given, 8-mer, flanks averaged, mean of 2 arrays, mostly near background; scale = relative to: not given, higher = stronger binding; endpoint = E-score; result = 0.0791

For quick reference, copied from above (study 1):
Oligonucleotide = CACAAAG; result = 0.742
Oligonucleotide = ACCCCGC; result = -0.382
